Published values gathered from unrelated publications.
Compare with care: the assays were run in different laboratories. “And” joins repeats or separate records; there may be more than shown. Converted amounts (≈) assume the structure as drawn.

The inhibition of CN([C@@H](Cc1ccc(OS(=O)(=O)c2cccc3cnccc23)cc1)C(=O)N1CCN(c2ccccc2)CC1)S(=O)(=O)c1cccc2cnccc12 is reported as 28% (murine hepatitis virus; viral replication, nanoluciferase reporter; DBT; 1 µM; baseline: DMSO vehicle).
The MIC90 of CCCCCCCCCCCc1c([N+](=O)[O-])oc2ccc3ccccc3c12 is reported as greater than 32 µg/mL (Enterobacter cloacae; REMA).
Nc1ccn([C@@H]2O[C@H](CO)[C@@H](O)C2(F)F)c(=O)n1 gave a selectivity index of greater than 200 (human alphaherpesvirus 1; primary human fibroblasts, K26 GFP; CC50 capped at 10.00 µM; baseline: CC50 over IC50).
Nc1ncnc2c1ncn2[C@@H]1O[C@@H]2COP(=O)(O)O[C@H]3[C@@H](O)[C@H](n4cnc5c(=O)[nH]cnc54)O[C@@H]3COP(=O)(O)O[C@H]2[C@H]1O gave a fold enrichment of 11.8 (West Nile virus; RNA sequencing, refers to: TLR endosomal trafficking processing R-HSA-1679131; HFF-1 cells; concentration not given, upregulated pathway; baseline: WNV-infected untreated cells).
CC[C@H](C=C[C@@H](C)[C@H]1CC[C@H]2[C@@H]3CCC4=CC(=O)CC[C@]4(C)[C@H]3CC[C@]12C)C(C)C: antileishmanial activity “inactive” (Leishmania mexicana; propidium iodide flow cytometry; promastigotes; concentration not given, 48 h).
With Nc1ccn(C[C@@H](CO)OCP(=O)(O)O)c(=O)n1 the selectivity index was 115 (varicella-zoster virus; HFF, Ellen; baseline: CC50 over EC50).
CN(C)C(=O)/C(C#N)=C/c1ccc(-c2nc3cnc4c(ccn4C)c3n2C2CCCCC2)o1 gave an inhibition of 30% (murine hepatitis virus; viral replication, nanoluciferase reporter; DBT; 1 µM; baseline: DMSO vehicle).
Nc1ncnc2c([C@@H]3N[C@H](CO)[C@@H](O)[C@H]3O)c[nH]c12 has an inhibition of 63.5% (Measles morbillivirus; viral replication; Vero 76, Chicago; 9.5 µM).
CCCCc1c([N+](=O)[O-])oc2ccc3ccccc3c12 has an MIC90 of greater than 32 µg/mL (Enterobacter cloacae; REMA).
With NS(=O)(=O)c1ccc(NN=C2C(=O)Nc3ccc(C(=O)NCc4ccncc4)cc32)cc1 the metabolic activity was no less than 80% (Aspergillus fumigatus; 20 µM; baseline: untreated).
With C[C@H](NC(=O)[C@H](CCCNC(=N)N)NC(=O)[C@H](Cc1c[nH]c2ccccc12)NC(=O)[C@H](CCCNC(=N)N)NC(=O)[C@H](Cc1c[nH]c2ccccc12)NC(=O)[C@H](Cc1c[nH]c2ccccc12)NC(=O)[C@H](Cc1c[nH]c2ccccc12)NC(=O)[C@H](CCCNC(=N)N)NC(=O)[C@H](Cc1c[nH]c2ccccc12)NC(=O)[C@H](CCCNC(=N)N)NC(=O)CN)C(N)=O the MIC was 8 µM (Candida albicans; CGMCC 2.209; no added salts).
Cn1cc(-c2ccc3nnc(Sc4ccc5ncccc5c4)n3n2)cn1 has an inhibition of -2% (murine hepatitis virus; viral replication, nanoluciferase reporter; DBT; 1 µM, 10 h; baseline: DMSO vehicle).
For CC(C)C[C@H](NC(=O)[C@H](CCCNC(=N)N)NC(=O)[C@H](Cc1c[nH]c2ccccc12)NC(=O)[C@H](CCCNC(=N)N)NC(=O)[C@H](Cc1c[nH]c2ccccc12)NC(=O)[C@H](Cc1c[nH]c2ccccc12)NC(=O)[C@H](Cc1c[nH]c2ccccc12)NC(=O)[C@H](CCCNC(=N)N)NC(=O)[C@H](Cc1c[nH]c2ccccc12)NC(=O)[C@@H](N)CCCNC(=N)N)C(N)=O, the MIC was 8 µM (≈ 13.5 µg/mL) (Candida albicans; broth microdilution; 17546, RPMI 1640-MOPS; 48 h, 30 °C).
With Cn1cc(-c2ccc3occ(-c4cccc(-c5ccncc5)c4)c3n2)cn1 the inhibition was 2% (murine hepatitis virus; viral replication, nanoluciferase reporter; DBT; 1 µM, 10 h; baseline: DMSO vehicle).
CS(=O)(=O)CCCn1c(Cn2c(=O)n(CC(F)(F)F)c3ccncc32)cc2cc(Cl)ccc21 — result for “LS mean difference vs placebo”: -1.33 log10 copies/mL (respiratory syncytial virus; RT-qPCR; hospitalized infants 1-24 months, nasal swab; oral, 1-9 mg/kg daily, day 2, all doses combined; baseline: placebo).
CO/N=C(\C(=O)N[C@@H]1C(=O)N2C(C(=O)O)=C(CSC(=O)c3ccco3)CS[C@H]12)c1csc(N)n1 has an MBC of 8 µg/mL (Staphylococcus aureus; CAAS-2019-CAAS-2019-02 clinical drug-resistant isolate, 25% plasma).
C[C@H](NC(=O)[C@H](CCCNC(=N)N)NC(=O)[C@H](Cc1c[nH]c2ccccc12)NC(=O)[C@H](CCCNC(=N)N)NC(=O)[C@H](Cc1c[nH]c2ccccc12)NC(=O)[C@H](Cc1c[nH]c2ccccc12)NC(=O)[C@H](Cc1c[nH]c2ccccc12)NC(=O)[C@H](CCCNC(=N)N)NC(=O)[C@H](Cc1c[nH]c2ccccc12)NC(=O)[C@@H](N)CCCNC(=N)N)C(N)=O gave an MIC of 8 µM (≈ 13.2 µg/mL) (Candida albicans; broth microdilution; 17546, RPMI 1640-MOPS; 48 h, 30 °C).
COC(=O)C1=C(C)NC(C)=C(C(=O)OC(C)(C)CN(C)CCC(c2ccccc2)c2ccccc2)C1c1cccc([N+](=O)[O-])c1 (centres unmarked) gave a metabolic activity of 26.1% and 20.1% (Aspergillus fumigatus; Alamar blue; 15.6 µg/mL, 48 h, with: caspofungin 0.2 µg/mL).
For CCCC(CCC)C(=O)Nc1ccccc1O, “log2 fold change” read 0.742 (Artemia franciscana; LC-MS/MS metabolomics, refers to: 1-aminocyclopropanecarboxylic acid; larvae; concentration not given, 24 h, LC10 concentration; baseline: vehicle).
For Cn1c(=O)ccc2ccc(F)c(CCNC[C@H]3CN(c4cnc5c(n4)NC(=O)CO5)C(=O)O3)c21, the MIC50 was less than 0.015 µg/mL (Helicobacter pylori).
CC(=O)O[C@H]1C[C@H](O[C@H]2[C@@H](O)C[C@H](O[C@H]3[C@@H](O)C[C@H](O[C@H]4CC[C@@]5(C)[C@H](CC[C@@H]6[C@@H]5C[C@@H](O)[C@]5(C)[C@@H](C7=CC(=O)OC7)CC[C@]65O)C4)O[C@@H]3C)O[C@@H]2C)O[C@H](C)[C@H]1O[C@@H]1O[C@H](CO)[C@@H](O)[C@H](O)[C@H]1O has a selectivity index of greater than 125 (human alphaherpesvirus 1; K26 GFP, 3D skin equivalent, air-liquid; baseline: CC50 over IC50).
For Cc1c2c(nn1C)CSCc1cc(n(C)n1)CSc1cc(c3ccccc3c1)OCCCc1c(C(=O)O)n(C)c3c-2c(Cl)ccc13, “log2 fold change” read -4.79 (Staphylococcus aureus; label-free quantitative proteomics, refers to: SAOUHSC_00284 protein; SA113; concentration not given; baseline: untreated control).
With O=C(NCCN1CCOCC1)c1ccc2c(c1)C(=O)c1ccc(Nc3ccc(F)c(NC(=O)c4ccccc4)c3)cc1CC2 the inhibition was 0% (murine hepatitis virus; viral replication, nanoluciferase reporter; DBT; 1 µM, 10 h; baseline: DMSO vehicle).
For CC(C)COC(=O)c1ccc2c(c1)/C(=C/Nc1ccc(S(N)(=O)=O)cc1)C(=O)N2, the metabolic activity was no less than 80% (Aspergillus fumigatus; 20 µM; baseline: untreated).
C=C(CC[C@@H](C)[C@H]1CC[C@H]2[C@@H]3CCC4=CC(=O)CC[C@]4(C)[C@H]3CC[C@]12C)C(C)C gave an IC50 of 24 µM (Leishmania mexicana; parasite growth, propidium iodide flow cytometry; promastigotes; 48 h).
For CC[C@H](C)[C@H](NC(=O)[C@H](CCCNC(=N)N)NC(=O)[C@H](Cc1c[nH]c2ccccc12)NC(=O)[C@H](CCCNC(=N)N)NC(=O)[C@H](Cc1c[nH]c2ccccc12)NC(=O)[C@H](Cc1c[nH]c2ccccc12)NC(=O)[C@H](Cc1c[nH]c2ccccc12)NC(=O)[C@H](CCCNC(=N)N)NC(=O)[C@H](Cc1c[nH]c2ccccc12)NC(=O)[C@@H](N)CCCNC(=N)N)C(N)=O, the MIC was 16 µM (≈ 27 µg/mL) (Candida albicans; broth microdilution; CGMCC 2.209, RPMI 1640-MOPS; 48 h, 30 °C, with: MgCl2 1 mM).
The inhibition of CC1=C(C#N)C(c2ccc3[nH]nc(C)c3c2)C(C#N)=C(C)N1 is reported as 4% (murine hepatitis virus; viral replication, nanoluciferase reporter; DBT; 1 µM, 10 h; baseline: DMSO vehicle).
C#Cc1ccc(O)c(C=NNC(=O)c2ccc(Br)c(Br)c2)c1 has an FICI of 2 (Aspergillus fumigatus; 293; unit not given, with: voriconazole; lower = more synergy).
O=C1Nc2ccc(I)cc2/C1=C/c1cc(Br)c(O)c(Br)c1 has an inhibition of 35% (murine hepatitis virus; viral replication, nanoluciferase reporter; DBT; 1 µM; baseline: DMSO vehicle).
O=[N+]([O-])c1cc2c(ccc3c4cc([N+](=O)[O-])oc4ccc23)o1 has an MIC90 of 16 µg/mL (≈ 53.7 µM) (Mycobacterium avium subsp. hominissuis; REMA; ATCC 25291).
C[C@H](NC(=O)Nc1cc2[nH]ncc2c(CO)n1)c1ccccn1 gave an inhibition of 25% (murine hepatitis virus; viral replication, nanoluciferase reporter; DBT; 1 µM, 10 h; baseline: DMSO vehicle).
The MBC90 of CC[C@H](C)[C@H](NC(=O)[C@H](C)NC(=O)[C@H](CCCCN)NC(=O)[C@H](CC(C)C)NC(=O)[C@H](C)NC(=O)[C@@H](NC(=O)[C@H](Cc1c[nH]cn1)NC(=O)[C@H](CC(C)C)NC(=O)[C@@H](NC(=O)[C@@H](NC(=O)[C@H](CCCCN)NC(=O)[C@H](C)NC(=O)[C@H](C)NC(=O)[C@H](CO)NC(=O)[C@H](CCCCN)NC(=O)[C@H](Cc1ccccc1)NC(=O)[C@@H](NC(=O)[C@H](CCCCN)NC(=O)[C@H](CC(C)C)NC(=O)[C@H](Cc1ccccc1)NC(=O)[C@H](CO)NC(=O)[C@H](CCCCN)NC(=O)[C@H](Cc1c[nH]c2ccccc12)NC(=O)[C@H](CCCCN)NC(C)=O)[C@@H](C)O)[C@@H](C)O)C(C)C)[C@@H](C)O)C(=O)N[C@@H](CO)C(=O)N[C@@H](CO)C(N)=O is reported as 8 µg/mL (≈ 2.73 µM) (Pseudomonas aeruginosa; ATCC 27853).
